# Results pooled from the literature.
# A part holds a random share of what one study measured.

# Study 1
# Target: RNA binding protein fox-1 homolog 2, RRM domain, GST-SBP tag (RBFOX2, Homo sapiens, UniProt O43251-10, residues 100-194)
# Method: RNA Bind-n-Seq
# Molecule type: RNA
# Sample: in vitro
# Tested at: 365 nM
# Setting: natural RNA segment, single round, ends assumed
# Baseline: no-protein control
# Reading: higher = stronger binding
# Shared flanks, not repeated: GGGAGUUCUACAGUCCGACGAUC … UGGAAUUCUCGGGUGCCAA
Strand,RBNS enrichment (R)
UCAUGUUCCUGCCCCCUUUACUCCAUGCCAAACCUGGGAUUAGACAGCCUGCUGGCUCCAGAAAAAAGGUCUUGGUAGGCAUUAGUCUAUCCUAGGUGCCCCCAGUGCAC,0.381
GUAUGGCUAAGUGCGAACACAUUGACAGGUCCAGCAAGAAGGAGCCUCAAACUGCCAUUCACAGUGGUACUGUGAUCCAGACCCCUGAGUGCCACAGGAAGGGUAGGCCC,0.422
UCAUUGGACUAGUGCAGAGGCUUUAAGUAGUUUAAAAUGGGCUUUUGCUUUUCUAGGUCAUUAACGUUUUUUAUUUAGUUUCUUUAGCCAAUAGUGGCUGAGUUUCGCAC,0.464
UGUGUUUUUCUUUUGGCUAAACUUCUUUUGGAAGUUGGUAAGUUCAGCCAAGGUUUUACAGGCCCUGAUGUCUGUUCUUCUAAAUGGUUUAAGUAAUUGGGACUCUAGCA,7.18
AUUGCCUCUGACUUCCUCCUCCCCUGGGUUCUGACUUCUUCCUCCCCUUGCUUCCAGGGAAGAUGAAGAGAGAGAGAUUUGGAAGGGGCUCUGGCUCCCUAACACCUGAA,0.566
GAGGUGCCCAGAUUCCUUUCCCUUUAACGCGUGUAAAGUUCUGUGCAUUUGAUUGUAAACUGUACUCGUCCGUGUGGAACUGUACACACCUUAGUUACUUCAUUUGGCUC,0.442
AAAAAAAAACCCAAGAAGGAGUAUUUUGUGUUUAGUCUUUGAUGAGUUUUCUGUAAUUCUCCCCCUCUUUAAAAACAUCACUGAAAUUUCAAUAAAUUUUUAUUGAAAUG,0.838
CCCAGUGGCUCUCAACCCAUGCGCUACCAAAUACGCCUGGGCAGCCGGGACGGGCCGGCGGGCACCAGGCUGGGGUCUCCUUGUCUGUGCUCUGAUAUGCUCCUUGACUG,0.442
CCAUUUAUUUCAGAAGGCUGAACAUAAGAGGUUUCUACUCAGCAAUACUUAGAUGUCUAACUGUUUAAUUGCUACAGAGCUUUAUAGAUAUUUAGAGAAAAGACUUAAUC,0.757
GCUGGGAUCGAUUCCUAGCUUUACCACUAACUAGCUGUGUGGCCUUGAGUAAAUCCCGUUACCUCUCUGAGCCUCGGUUACCCUGUCUGUAAAAAGGGAGGUGAGAAUAC,0.425
UCCUCUCCCCAGCCCCCCUUACCUUCACUCCCAUACUGGACAAGACAUUUUGGACAUGAGUUCAAGGGGGCAGGUUAAUUCCUGGCAUUGCCAGUUUUCUUCAUUCAGAA,0.389
UCUUAUUCUUUGGUUUAAAUACUGAAACAUGAUUAAUUGCUAACUACAGCUUAGAAACCCAAUAUCAGUUGUACUUAACAUCUUUAAGAGCAUGAUCAUAAAGGCUAUUU,0.479

# Study 2
# Target: Prothrombin, mature alpha-thrombin (F2, Homo sapiens, UniProt P00734)
# Method: aptamer microarray, sandwich
# Molecule type: DNA with 2'F-ANA
# Sample: in vitro
# Tested at: 200 nM
# Setting: whole 15-mer aptamer, many near background
# Together with: Cy3 exosite-II aptamer, 400 nM
# Reading: higher = stronger binding
# Strand: GGTTGGTGTGGTTGG
Modification,mean fluorescence intensity [a.u.]
2'F-ANA at 1 5 8 10 12 14,44.1
2'F-ANA at 3 5 7 10 12 13 15,89.3
2'F-ANA at 1 5 6 7 9 11 13,64.8
2'F-ANA at 1 2 3 4 6 9 11 15,111
2'F-ANA at 1 2 5 6 8 9 12 13 14,47.4
2'F-ANA at 2 3 5 8 12 13 14 15,77.7
2'F-ANA at 2 4 5 6 7 9 10 12 14,47.9
2'F-ANA at 1 2 3 5 6 7 9 10 11 13 15,61.3
2'F-ANA at 2 7 8 14,205
2'F-ANA at 2 3 4 5 6 7 10 13,100
2'F-ANA at 1 2 3 5 8 9 10 11 13 14 15,76.7
2'F-ANA at 2 4 5 6 8 9 14 15,48.4
2'F-ANA at 4 6 7 8 13,230
2'F-ANA at 3 7 9 10 11 12,617
2'F-ANA at 1 2 3 7 8 10 11 14,52.3
2'F-ANA at 5 10 12 13 14,44.3
2'F-ANA at 1 4 6 7 8 10 12 13 15,55.3
2'F-ANA at 1 3 10 11 14 15,123
2'F-ANA at 8 9 12 13 15,686
2'F-ANA at 1 7 9 10 12 13 15,73.2
2'F-ANA at 1 3 4 5 6 9 13 15,51.1
2'F-ANA at 1 4 6 10 13 15,44.9
2'F-ANA at 4 5 10 13 14 15,45.5
2'F-ANA at 1 2 3 4 7 11 13 14 15,71.2
2'F-ANA at 1 5 9 10 13,42.6

# Study 3
# Target: Histone acetyltransferase KAT6A, both winged helices, GST fusion (KAT6A, Homo sapiens, UniProt Q92794, residues 1-181)
# Method: protein binding microarray
# Molecule type: double-stranded DNA, one strand shown
# Sample: in vitro
# Tested at: not given
# Setting: 8-mer, flanks averaged, mean of 2 arrays, mostly near background
# Baseline: not given
# Reading: higher = stronger binding
# Residues (chain): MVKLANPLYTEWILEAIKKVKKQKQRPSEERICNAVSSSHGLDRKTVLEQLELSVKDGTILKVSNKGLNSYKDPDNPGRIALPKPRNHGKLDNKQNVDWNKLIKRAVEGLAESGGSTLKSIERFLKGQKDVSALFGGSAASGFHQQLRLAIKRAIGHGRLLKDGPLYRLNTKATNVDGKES
Strand,E-score
CCTGCATA,-0.102
CTTTCTTC,-0.0818
GGCCTAGA,-0.0771
CCTAGGGA,-0.208
AATAGCCC,-0.0718
AACCGGCC,0.247
ACACTAGC,-0.00102
GAAGGGCC,-0.0237
CGCTCCAC,0.0967
AGACGTTC,-0.0825
GAATGCGA,0.0526
GCCCGCCA,0.0921
AAATCTCC,-0.129
AAGAGTGC,-0.107
AACAGATA,-0.133
ATACGCCC,0.166
AAGGGCAC,-0.236
AAAGGCCC,0.112
GATTATCC,0.0333
CTCCAGTC,-0.108
GGTCTGAA,-0.0289
CCCTGAAG,-0.134
CTACATCA,-0.0602
GAAAGTAC,-0.0144
CCGTGCCC,0.175

# Study 4
# Target: Fragile X messenger ribonucleoprotein 1, C-terminal low-complexity region (Fmr1, Mus musculus, UniProt P35922)
# Method: RNA Bind-n-Seq
# Molecule type: RNA
# Sample: in vitro
# Tested at: 200 nM
# Setting: whole 134-nt RNA, ends assumed
# Together with: 150 mM LiCl
# Baseline: input library
# Reading: higher = stronger binding
# Library: 7-deaza-guanosine replaces G
# Shared flanks, not repeated: GGGAGUUCUACAGUCCGACGAUC … UGGAAUUCUCGGGUGUCAAGG
Strand,log2 enrichment
UCCUGUGCUACACAUCGUAUGUACCGAAUCGGGGAAAAAAAGGGGAAAGGGGAAAGGGGAAAGUAUUAUGUUACGCCGUUCGGAUCUGCA,-0.233
CUCAAGUCCUGUGCUACACAUCGUAUGUACCGAAUCGGGUUUGGGAGGGAGGGAAAGUAUUAUGUUACGCCGUUCGGAUCUGCACUUCCA,-0.548
UUUAUCAUGAGGAGCUCAACGCGCCCAUACGGAGAAACAAAGAAGAGCCCAAGGCCCGGCCCUUGAGAGUAGGUGACACGGAGAAGCCAG,-1
CCUGUGCUACACAUCGUAUGUACCGAAUCGGGAAAAAAGGGGAAAAAAGGAAAAAAGGGGAAAGUAUUAUGUUACGCCGUUCGGAUCUGC,0.0329
AAGUCCUGUGCUACACAUCGUAUGUACCGAAUCGGGGUUUUGGUUUUGGUUUUGGGGAAAGUAUUAUGUUACGCCGUUCGGAUCUGCACU,-1.55
GUCCUGUGCUACACAUCGUAUGUACCGAAUCGGGGUUUUUGGUUUUUGGGGUUUUUGGGAAAGUAUUAUGUUACGCCGUUCGGAUCUGCA,-0.928
ACCAUGCAGGUGGGCCUCUUUGGGAAGUGGGGCAAGGGGGGGAUAGGGAGGGGGGUAACACUUUGGGAACAGGUGGUCCCAGGUCGUUUC,1.31
UGUGCUACACAUCGUAUGUACCGAAUCGGGGAAAAAAAGGGGAAAAAAAGGGAAAAAAAGGGGAAAGUAUUAUGUUACGCCGUUCGGAUC,1.27
CUCAAGUCCUGUGCUACACAUCGUAUGUACCGAAUCGGGGCGGGGCGGGGCGGAAAGUAUUAUGUUACGCCGUUCGGAUCUGCACUUCCA,-1.04
UCCUGUGCUACACAUCGUAUGUACCGAAUCGGGGAAAAAGGGGAAAAAGGGGAAAAAGGAAAGUAUUAUGUUACGCCGUUCGGAUCUGCA,-0.182
ACCAUGCAGGUGGGCAUCUUUGGGAAGUGGGGCAAGGGGGGGAUAGGGAGGGGGGUAACACUUUGGGAACAGGUGGUCCCAGAUCGUUUC,1.21

# For quick reference, copied from above (study 3):
Strand,E-score
AAGGGCAC,-0.236
AAAGGCCC,0.112
GATTATCC,0.0333
CTCCAGTC,-0.108
GGTCTGAA,-0.0289
